Published values collected from several papers.
A part holds a random share of what one study measured. Substitutions count along the parent as printed.

Block 1
Organism: Saccharomyces cerevisiae
Read-out: peptide binding
Method: yeast competitive growth sequencing
Form: peptide
Strain: cyclin F-Cln2 fusion
Tested at: concentration not given
Setting: library 2, Cln2-subtracted
Reading: direction not given
| Molecule | binding score |
| --- | --- |
| LLKRLQDVVSERA | 0.877 |
| GFGFLLFICKLTF | 2.25 |
| LLRRLQDVANDRG | 1.06 |

Block 2
Target: RNA binding protein fox-1 homolog 2, RRM domain, GST-SBP tag (RBFOX2, Homo sapiens, UniProt O43251-10, residues 100-194)
Method: RNA Bind-n-Seq
Form: RNA
Matrix: in vitro
Tested at: 365 nM
Setting: natural RNA segment, single round, ends assumed
Baseline: no-protein control
Reading: higher = stronger binding
Target sequence (chain): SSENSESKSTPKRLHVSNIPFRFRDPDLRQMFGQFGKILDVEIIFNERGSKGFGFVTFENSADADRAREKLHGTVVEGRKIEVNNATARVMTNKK
| Strand | RBNS enrichment (R) |
| --- | --- |
| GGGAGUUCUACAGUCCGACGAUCAACUAAAAUCAAUAUGUUUUAAAAGUCACCAUAUAGCUUCUUACUAGUUAUCUUUUAAAGACUGUGGUGGUCUUAAAAGGGAACAAAAGCUACUACAGACUAAAUUUAUGUGGAAUUCUCGGGUGCCAA | 0.462 |
| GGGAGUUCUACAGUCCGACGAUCGGCUGCACUACAAUGUCCACAGGCAAGAGGCCCCCAGGCCACCAGCAAAUGUCCCGCCCCUGGGGACAGUGCGCCCGCUCGCCCUUGGUUGUGCUGGGCAGCAUUUGUACUGGAAUUCUCGGGUGCCAA | 1.01 |
| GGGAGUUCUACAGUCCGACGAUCAGUAGUGGGAUAAGUCACUGUUUUCUUUACAAAACAAAACAGUCCUGUUGGGAAUGAUUGCUGUUGGAUUCUGGAAGGGAGGGGAAAGCUGCUCUGCUGCCUCUUUGCCAUGGAAUUCUCGGGUGCCAA | 0.412 |
| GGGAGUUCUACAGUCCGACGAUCGGACCCAGGGUCGCCUCAGGCAAAUGUGGUUGGUCGGUGGCUCCAAAGGCGAGAGGUUUUUCUUCCUGGCCCCCCAGUGUGGGUUUCUUCCUGUGAACUCACUCUGUGCCUGGAAUUCUCGGGUGCCAA | 0.361 |
| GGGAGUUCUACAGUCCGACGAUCGUCUAGCACCUAGAUUACAGCCAGGAACAUUGGUUAAGAACUGUUGGAAACAAAACUAAAAGCAAACUCAACAUAUGUGAUGUUUAUGGCCCUCAGAUCCUUAGUAUUGUUGGAAUUCUCGGGUGCCAA | 2.98 |
| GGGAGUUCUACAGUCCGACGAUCUUUCUAGAAUGUCAUAUAAAUGGAGUCACACUGAUGUCGCCUUUUGAGUCUGGCAUCUUUCCCUCAGCUUAAUGCUUUUGAGUCAUUCAUGAUGUGUGCGUGUGGUUUGUUGGAAUUCUCGGGUGCCAA | 0.423 |
| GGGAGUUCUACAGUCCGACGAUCAAAUAUUAAAUGAUUUAGCAGUCUCCACGUGUGUUAAUGUUUCAAACGUGUAUCAUAAUGUGUAUAAUUGUGUAACAAAAUUGUCUACAAUAAAUCUUUUGGUAUUUGUGUGGAAUUCUCGGGUGCCAA | 0.403 |
| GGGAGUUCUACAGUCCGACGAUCAACAGAACGUGGUAGUGGAGUAGCUGUUGCCCUUCUCCGGCUGUGUGUACAGUAUGUGUGGAAUAAAAAAGGGAAACUGUUUUCACAAGCUGUUGUUUGUUUCAUAAUUGUGGAAUUCUCGGGUGCCAA | 0.517 |
| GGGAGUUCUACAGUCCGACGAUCCCGCUGGUCCCUGCUAUCCGAAGUGCCAUGCUUCCAGGAAGGACCAUGGGAAUGGUUUUGAGGACCUGGAUGAGGAAGAAGGCGUGGCAUCCUCCUGGCUUCUUACAGAAUGGAAUUCUCGGGUGCCAA | 0.302 |
| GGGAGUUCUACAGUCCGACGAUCGAAGGGAUUUGUUCUAUACGAGGCAACUGCAGUGAGUGCUUUUAAGGCUAUCCCUGUCGCACGUUGGAUCCUGGAUAAGCUAGUCCCUUCGUUUGCGUUGAGAAUUGGCAUGGAAUUCUCGGGUGCCAA | 2.13 |
| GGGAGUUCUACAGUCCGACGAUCGGCUCCACCAGGUACCAAGGGCAGCUGCUUUUCCUGUCUUUUGUGCAUGGGCGACCCAUUACAGUAUGAGAUAAGAUUGAGUUCUGAUGCGUUAAACGGAGGUGGCAGAAUGGAAUUCUCGGGUGCCAA | 0.73 |
| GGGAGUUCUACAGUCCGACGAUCCCUGAGCAGUUCUACCCUCCCAAGGCACCAGUACUCUACCAUGGGGCAUCCCAAGUGGGGUCCUCACCCAUCCCAGCUACUGCAGCUCUGUAUUACUUUGUCAUUUCCUGUGGAAUUCUCGGGUGCCAA | 0.242 |

Block 3
Target: Sal-like protein 4, full length isoform B (SALL4, Homo sapiens, UniProt Q9UJQ4-2, residues 1-616)
Method: universal PBM
Form: double-stranded DNA, one strand shown
Matrix: in vitro
Tested at: not given
Setting: 8-mer, flanks averaged, mean of replicates
Reading: higher = stronger binding
| Strand | E-score |
| --- | --- |
| ATCGATTA | 0.175 |
| GGACTACC | -0.211 |
| ACATCATG | 0.0122 |
| CGATATTA | 0.361 |
| ACACAGCA | 0.162 |
| GTTAGCTA | -0.209 |
| ATAGTGAG | 0.191 |
| GAAGACTC | -0.0961 |
| GAAACCGC | -0.132 |
| CATGACTC | -0.015 |
| TACACTAA | 0.208 |
| GTTCTAAA | 0.192 |
| GGAATCAC | 0.036 |
| GAAAAACA | 0.141 |
| CTGGATCA | -0.0812 |
| AACTGGGG | -0.165 |
| ATAACAGC | 0.247 |
| GGAATAAA | 0.291 |
| GCATGTAC | -0.0812 |
| AGCATACC | -0.00605 |
| GGAAAGCA | -0.00712 |
| AGGGCACG | -0.22 |
| AGAGACCC | -0.165 |
| GCCTCTCC | -0.239 |

Block 4
Target: ABI1, truncated, D143A, DHFR fusion (Arabidopsis thaliana)
Method: DHFR PCA, deep sequencing
Matrix: yeast
Setting: methotrexate growth selection, single substitutions
Together with: (+)-ABA 0 µM
Baseline: wild-type fitted maximum
Reading: higher = stronger binding
Parent: PYL1, truncated, DHFR fusion (Arabidopsis thaliana); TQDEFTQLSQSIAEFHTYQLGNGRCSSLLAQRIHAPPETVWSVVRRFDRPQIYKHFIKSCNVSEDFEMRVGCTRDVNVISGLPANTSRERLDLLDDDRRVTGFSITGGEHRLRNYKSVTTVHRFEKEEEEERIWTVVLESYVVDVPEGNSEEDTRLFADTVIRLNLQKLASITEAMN; partner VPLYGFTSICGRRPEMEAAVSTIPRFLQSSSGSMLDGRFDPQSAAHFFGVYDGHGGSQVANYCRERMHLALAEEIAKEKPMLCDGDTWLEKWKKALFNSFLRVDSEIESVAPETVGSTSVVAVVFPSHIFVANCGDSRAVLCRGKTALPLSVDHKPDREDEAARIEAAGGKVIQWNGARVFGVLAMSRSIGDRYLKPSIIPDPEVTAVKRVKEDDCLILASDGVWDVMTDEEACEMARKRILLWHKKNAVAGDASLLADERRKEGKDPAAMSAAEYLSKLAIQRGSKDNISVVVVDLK
| Substitution | relative binding score [%] |
| --- | --- |
| E151D | 4.1 |
| G108F | -6.94 |
| D75N | 22.3 |
| T135I | -0.248 |
| D97Q | 26.4 |
| R99A | -4.45 |
| L156Y | -8.76 |
| I133C | 45.6 |
| A13K | 33.3 |
| V62H | -4.57 |
| E38L | 1.26 |
| R88A | 2.66 |
| E67L | 1.38 |
| S150L | 4.94 |
| T101Q | -7.47 |

Block 5
Target: Prothrombin, mature alpha-thrombin (F2, Homo sapiens, UniProt P00734)
Method: aptamer microarray, sandwich
Form: DNA with 2'F-ANA
Matrix: in vitro
Tested at: 200 nM
Setting: whole 15-mer aptamer, many near background
Together with: Cy3 exosite-II aptamer, 400 nM
Reading: higher = stronger binding
Strand: GGTTGGTGTGGTTGG
| Modification | mean fluorescence intensity [a.u.] |
| --- | --- |
| 2'F-ANA at 2 3 5 6 10 12 | 57.9 |
| 2'F-ANA at 3 4 5 6 7 8 13 14 15 | 48.6 |
| 2'F-ANA at 1 2 5 8 9 10 13 14 15 | 45.5 |
| 2'F-ANA at 1 3 6 7 8 10 11 12 13 15 | 169 |
| 2'F-ANA at 2 4 6 8 10 11 15 | 72.8 |
| 2'F-ANA at 2 3 4 6 7 8 10 11 12 13 | 237 |
| 2'F-ANA at 2 7 10 12 13 | 168 |
| 2'F-ANA at 5 6 7 9 10 13 14 15 | 49.9 |
| 2'F-ANA at 5 7 8 11 12 14 | 47.5 |
| 2'F-ANA at 2 5 7 8 9 10 11 13 15 | 54.8 |
| 2'F-ANA at 1 5 6 8 9 10 11 13 15 | 46.7 |
| 2'F-ANA at 2 4 5 11 13 | 51.7 |
| 2'F-ANA at 1 3 4 5 6 7 9 11 13 14 15 | 51.2 |
| 2'F-ANA at 1 3 4 6 11 13 14 | 60.5 |
| 2'F-ANA at 1 2 3 4 6 7 8 9 12 13 14 | 64.4 |
| 2'F-ANA at 2 3 6 8 9 13 15 | 521 |
| 2'F-ANA at 1 4 6 7 9 10 11 13 14 | 47.2 |
| 2'F-ANA at 1 2 3 4 5 6 9 13 | 50.7 |

Block 6
Target: Histone acetyltransferase KAT6A, winged helix 1, GST fusion (KAT6A, Homo sapiens, UniProt Q92794, residues 1-85)
Method: protein binding microarray
Form: double-stranded DNA, one strand shown
Matrix: in vitro
Tested at: not given
Setting: 8-mer, flanks averaged, mean of 2 arrays, mostly near background
Baseline: not given
Reading: higher = stronger binding
Target sequence (chain): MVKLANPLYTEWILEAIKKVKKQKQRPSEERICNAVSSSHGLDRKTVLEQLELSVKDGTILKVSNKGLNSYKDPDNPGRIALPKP
| Strand | E-score |
| --- | --- |
| CCGCTGCA | 0.254 |
| AAGCCAGC | -0.136 |
| AGTCAATG | -0.173 |
| AGACGTGG | -0.137 |
| CGGCACGA | 0.182 |
| AGGAAGTA | -0.0428 |
| CACTCTAG | -0.0858 |
| CCTTCTCC | -0.277 |
| GTGCCAAA | -0.164 |
| ACCTGGCG | 0.171 |
| GCAATGAC | -0.0478 |
| CGTGCGCA | 0.332 |
| TATCGGCA | 0.134 |
| ACGTGATA | -0.0487 |
| ATATCCCC | -0.0627 |
| AAACGGGT | 0.305 |
| AAAGTTAA | -0.0851 |
| CTAGCCAA | -0.111 |
| CCATTAAA | -0.0394 |
| CGATAATC | 0.133 |
| GGCATTCA | 0.114 |
| TAGCTTCA | -0.146 |

Block 7
Target: NFE2L2, bZIP domain (human)
Method: DHFR protein complementation
Matrix: yeast
Setting: single substitutions, most at no-binding floor
Baseline: wild-type JUN-FOS pair
Reading: higher = stronger binding
Parent: JUN, bZIP domain (human); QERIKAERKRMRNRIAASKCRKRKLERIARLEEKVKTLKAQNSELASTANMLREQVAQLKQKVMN; partner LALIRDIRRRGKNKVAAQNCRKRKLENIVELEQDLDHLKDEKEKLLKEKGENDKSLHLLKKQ
| Substitution | binding fitness |
| --- | --- |
| N42C | -1.56 natural log |
| V35Y | -1.5 natural log |
| E32Y | -1.5 natural log |
| M51V | -1.4 natural log |
| T48S | -1.31 natural log |
| A29V | -1.27 natural log |
| L31I | -1.54 natural log |
| V56H | -1.48 natural log |
| M51C | -1.43 natural log |
| E44R | -1.38 natural log |
| E44P | -1.59 natural log |
| L59G | -1.08 natural log |
| A46V | -1.43 natural log |
| E54I | -1.59 natural log |
| A46C | -1.47 natural log |
| L31G | -1.47 natural log |

For quick reference, copied from above (block 6):
| Strand | E-score |
| --- | --- |
| CCATTAAA | -0.0394 |
| ACCTGGCG | 0.171 |
| GGCATTCA | 0.114 |
| GCAATGAC | -0.0478 |
| AAGCCAGC | -0.136 |
| GTGCCAAA | -0.164 |
| ATATCCCC | -0.0627 |
